Experimental data from different studies.
Protocols differ between the studies behind these lines. Values joined by “and” are separate records of one study, mostly repeats; a detail may differ. ± marks the error that the study gave.

| SMILES | target or system | test | system | setting | how to read | quantity | value |
| --- | --- | --- | --- | --- | --- | --- | --- |
| COc1cc(C(=O)Nc2cc(OCCN3CCCC3)c3ccccc3n2)nc(C(=O)Nc2cc(OCCN3CCCC3)c3ccccc3n2)c1 | c-myc G-quadruplex DNA | FRET melting |  | 1 µM, pH 7.4, together with: 60 mM potassium |  | ΔTm | 4.9 ± 0.8 K |
| Cc1ncsc1-c1ccc([C@H](C)NC(=O)[C@@H]2C[C@@H](O)CN2C(=O)[C@@H](NC(=O)CCCCCCCCCCNC[C@@H](C(=O)N2CCN(c3ncnc4c3[C@H](C)C[C@H]4O)CC2)c2ccc(Cl)cc2)C(C)(C)C)cc1 | Akt | inhibitor | mouse BT-474 xenograft | intraperitoneal, 30 mg/kg |  | sustained response duration | ≥ 48 h |
| O=C(c1ccc(Cl)cc1)N(Cc1ccccc1)C1CCCCC1 | SKCa channel |  |  | 10 µM |  | inhibition | 2.8% |
| C[C@H]1O[C@H](O[C@H]2[C@H](O)[C@@H](O)[C@@H](O[C@H]3[C@H](O)[C@@H](O)C(O)O[C@@H]3CO)O[C@@H]2CO)[C@H](O)[C@@H](O)[C@@H]1N[C@H]1C=C(CO)[C@@H](O)[C@H](O)[C@H]1O (stereo partly shown) | yeast alpha-glucosidase | enzyme activity |  | together with: pNPG |  | IC50 | 51.4 µM |
| CCOc1ccc2c(C(F)(F)F)cc(=O)oc2c1 | rabbit cytochrome P450 2B4 F297A | O-deethylation, substrate |  |  |  | kcat | 0.09 ± 0.00333 s⁻¹ |
| CC(O)Cn1cnc2c1c(=O)n(C)c(=O)n2C (stereo not shown) | human iPSC-derived cardiomyocytes | MyBP-C/MYH ratio, plate-normalised SD score |  | concentration not given, primary screen | direction not given | activity score | 3.2 |
| CC[S+]([O-])c1nc(-c2ccccc2)cc(C(F)(F)F)n1 (stereo not shown) | importin beta-1 | SREBP1 nuclear import, high content imaging | HeLa Kyoto | 0.5 µM, 3 h, together with: glucose and MG132 |  | cells with nuclear SREBP1 | 91.9% and 88.8% and 87.3% and 86.1% |
| C1CCC(C(CC2CCCCN2)C2CCCCC2)CC1 (stereo not shown) | human iPSC-derived cardiomyocytes | MyBP-C/MYH ratio, plate-normalised SD score |  | concentration not given, primary screen | direction not given | activity score | 5.4 |
| Cc1cc(F)cc2c(CCC(=O)N[C@@H]3C(=O)NC[C@H]3O)c(-c3ccc(F)cc3)[nH]c12 | NMDA glutamate receptor, glycine site | binding |  | 10 µM |  | inhibition | 3% |
| O=C(Nc1cc(OCCN2CCCC2)c2ccccc2n1)c1cc(Cl)cc(C(=O)Nc2cc(OCCN3CCCC3)c3ccccc3n2)n1 | c-myc G-quadruplex DNA | FRET melting |  | 1 µM, pH 7.4, together with: 60 mM potassium |  | ΔTm | 14.5 ± 0.8 K |
| Ic1ccc2nccc(NCCc3ccccc3)c2c1 | CDK8/CDK19 | NF-κB reporter gene | 293-NFκB-Luc | 3 h, together with: TNF-α 10 ng/mL |  | IC50 | > 5 µM |
| [Cl-].[Cl-].[Pt+2].[Ru+2].c1ccc(-c2nc3cc4ccccc4cc3nc2-c2ccccn2)nc1.c1cnc2c(c1)ccc1cccnc12.c1cnc2c(c1)ccc1cccnc12 | pcDNA supercoiled plasmid | agarose gel electrophoresis |  | 50 µM, photoinduced cleavage, together with: 0.1 µM pcDNA |  | supercoiled DNA | 86% |
| CCS(=O)(=O)c1nc(C2CC2)cc(C(F)(F)F)n1 | importin beta-1 | SREBP1 nuclear import, high content imaging | HeLa Kyoto | 15.82 µM, 3 h, together with: glucose and MG132 |  | cells with nuclear SREBP1 | 90.7% and 89.1% and 91.2% and 87.8% |
| c1coc(-c2n[nH]cc2-c2ccnc3ccccc23)c1 | SHA3 (Candida albicans) | kinase binding, MIB/MS competition | Candida albicans lysate | 10 µM | reference: DMSO | log2 fold change | -0.18 |
| COc1cc(C(=O)Nc2cc(OC)c3ccccc3n2)nc(C(=O)Nc2cc(OC)c3ccccc3n2)c1 | c-myc G-quadruplex DNA | FRET melting |  | 1 µM, pH 7.4, together with: 60 mM potassium |  | ΔTm | 0.4 ± 0.2 K |
| Cn1cc(-c2ccc(-c3cncc(Cl)c3N3CCC4(CCNC4=O)CC3)cc2)cn1 | COLO 205 | gene expression, microarray, refers to: S100A10 mRNA |  | concentration not given, 2 h | reference: untreated cells | log2 fold change | 3.88 |

| SMILES | target or system | test | system | setting | how to read | quantity | value |
| --- | --- | --- | --- | --- | --- | --- | --- |
| COc1cccc(CNC(=O)C#Cc2cn(Cc3ccc(C(=O)O)cc3)c(=O)[nH]c2=O)c1 | MMP-14 | inhibitor, colorimetric |  | 20 µM |  | remaining MMP-14 activity | 109 ± 28% |
| NCCCOc1cc(NC(=O)c2cc(OCCN)cc(C(=O)Nc3cc(OCCCN)c4ccccc4n3)n2)nc2ccccc12 | c-myc G-quadruplex DNA | FRET melting |  | 1 µM, pH 7.4, together with: 60 mM potassium |  | ΔTm | 15.8 ± 0.8 K |
| [Cl-].[Cl-].[Pt+2].[Ru+2].c1ccc(-c2nccnc2-c2ccccn2)nc1.c1cnc2c(c1)ccc1cccnc12.c1cnc2c(c1)ccc1cccnc12 | pcDNA supercoiled plasmid | agarose gel electrophoresis |  | 100 µM, photoinduced cleavage, together with: 0.1 µM pcDNA |  | nicked circular DNA | 23.7% |
| NCCOc1cc(NC(=O)c2cc(OCc3c[nH]nn3)cc(C(=O)Nc3cc(OCCN)c4ccccc4n3)n2)nc2ccccc12 | c-myc G-quadruplex DNA | FRET melting |  | 1 µM, pH 7.4, together with: 60 mM potassium |  | ΔTm | 5.8 ± 0.1 K |
| Oc1ccccc1-c1n[nH]cc1-c1ccnc2ccccc12 | KIN3 (Candida albicans) | kinase binding, MIB/MS competition | Candida albicans lysate | 10 µM | reference: DMSO | log2 fold change | 0.4 |
| [Cl-].[Cl-].[Pt+2].[Ru+2].c1ccc(-c2nc3ccccc3nc2-c2ccccn2)nc1.c1cnc2c(c1)ccc1cccnc12.c1cnc2c(c1)ccc1cccnc12 | pcDNA supercoiled plasmid | agarose gel electrophoresis |  | 10 µM, photoinduced cleavage, together with: 0.1 µM pcDNA |  | supercoiled DNA | 92.6% |
| CC(Nc1nc(N2CCCC2)nc2ccccc12)c1ccccc1 (stereo not shown) | importin beta-1 | SREBP1 nuclear import, high content imaging | HeLa Kyoto | 1.58 µM, 3 h, together with: glucose and MG132 |  | cells with nuclear SREBP1 | 92.1% and 91.2% and 89.6% and 87% |
| CNC(=O)c1ccc2nccc(NCCc3ccccc3)c2c1 | CDK8/CDK19 | NF-κB reporter gene | 293-NFκB-Luc | 3 h, together with: TNF-α 10 ng/mL |  | IC50 | > 5 µM |
| CC(C)C[C@H](NC(=O)C[C@H](O)[C@H](CC(C)C)NC(=O)[C@H](Cc1c[nH]cn1)NC(=O)CNC(=O)[C@@H](NC(=O)[C@H](C)NC(=O)[C@H](Cc1c[nH]c2ccccc12)NC(=O)[C@H](CCC(N)=O)NC(=O)[C@@H](Cc1ccccc1)NC(=O)COCCOCCNC(=O)CN1CCN(CC(=O)O)CCN(CC(=O)O)CCN(CC(=O)O)CC1)C(C)C)C(N)=O [lutetium-177 labelled] |  |  | female BALB/c nu/nu mice, intestines | intravenous, 50 pmol, 1 h |  | tissue uptake | 1.5 ± 0.7 %ID/g |
| Nc1ccc2nccc(NCCc3ccccc3)c2c1 | CDK8/CDK19 | NF-κB reporter gene | 293-NFκB-Luc | 3 h, together with: TNF-α 10 ng/mL |  | IC50 | > 5 µM |
| NCCCOc1cc(NC(=O)c2cccc(C(=O)Nc3cc(OCCCN)c4ccccc4n3)n2)nc2ccccc12 | c-myc G-quadruplex DNA | FRET melting |  | 1 µM, pH 7.4, together with: 60 mM potassium |  | ΔTm | 16.3 ± 0.8 K |
| NC1(C(=O)N[C@@H](CCO)c2ccc(Cl)cc2)CCN(c2nc[nH]c3nccc2-3)CC1 | Akt | inhibitor | mouse BT-474 xenograft | intraperitoneal, 30 mg/kg |  | time before decline | 4 h |
| NCCOc1cc(C(=O)Nc2cc(OCCN)c3ccccc3n2)nc(C(=O)Nc2cc(OCCN)c3ccccc3n2)c1 | c-myc G-quadruplex DNA | FRET melting |  | 1 µM, pH 7.4, together with: 60 mM potassium |  | ΔTm | 16.8 ± 0.8 K |
| CCN(CC)c1ccc(/C=N/c2ccc(Cl)cc2)c(O)c1 | yeast alpha-glucosidase | enzyme activity |  | together with: pNPG |  | IC50 | 191 µM |
| Cc1c[nH]c(-c2cnc(NCCNc3ccc(C#N)cn3)nc2-c2ccc(Cl)cc2Cl)n1 | GSK3 | inhibitor, immunoblot | HEK293 stably expressing Hwa-HA | 5 µM, 24 h |  | Hwa phosphorylation | decreased |

Some of these lines once more:
| SMILES | target or system | test | system | setting | how to read | quantity | value |
| --- | --- | --- | --- | --- | --- | --- | --- |
| C1CCC(C(CC2CCCCN2)C2CCCCC2)CC1 (stereo not shown) | human iPSC-derived cardiomyocytes | MyBP-C/MYH ratio, plate-normalised SD score |  | concentration not given, primary screen | direction not given | activity score | 5.4 |
| CC(C)C[C@H](NC(=O)C[C@H](O)[C@H](CC(C)C)NC(=O)[C@H](Cc1c[nH]cn1)NC(=O)CNC(=O)[C@@H](NC(=O)[C@H](C)NC(=O)[C@H](Cc1c[nH]c2ccccc12)NC(=O)[C@H](CCC(N)=O)NC(=O)[C@@H](Cc1ccccc1)NC(=O)COCCOCCNC(=O)CN1CCN(CC(=O)O)CCN(CC(=O)O)CCN(CC(=O)O)CC1)C(C)C)C(N)=O [lutetium-177 labelled] |  |  | female BALB/c nu/nu mice, intestines | intravenous, 50 pmol, 1 h |  | tissue uptake | 1.5 ± 0.7 %ID/g |
